Experimental data gathered from unrelated publications.
Each line is one published result; not all experiments were run side by side. ± gives the spread as reported.
Spike glycoprotein: Spike glycoprotein (Severe acute respiratory syndrome coronavirus 2, UniProt P0DTC2)
rep main protease: Replicase polyprotein 1ab, main protease (rep, Severe acute respiratory syndrome coronavirus 2, UniProt P0DTD1)

SMILES	tested on	test	system	setting	scale	endpoint	result
Cn1cnc(Cn2c(=O)[nH]/c(=N\c3cc4cn(C)nc4cc3Cl)n(Cc3cc(F)c(F)cc3F)c2=O)n1	–	–	human, normal renal function, plasma	oral, 375 mg single dose, 24 h	–	unbound fraction	0.0118
Cc1cc(C2CCCCC2)n(O)c(=O)c1	ACE2 (Homo sapiens, UniProt Q9BYF1)	spike protein binding	–	added: SARS-CoV-2 spike protein	–	Emax	-95%
COC(=O)c1c(NC(=O)c2cc3ccccc3o2)sc(C)c1C	Replicase polyprotein 1ab, nsp14 N7-methyltransferase (rep, Severe acute respiratory syndrome coronavirus 2, UniProt P0DTD1)	N7-methyltransferase activity, inhibitor, Py-FLINT	–	–	–	Hill slope	1.49 ± 0.19
CC(C)=CCc1cc2c(cc1O)O[C@H](c1ccc(O)cc1)CC2=O	Spike glycoprotein	binding, BLI	–	–	–	koff	0.0787 s⁻¹
Nc1ncnc2c([C@@H]3N[C@H](CO)[C@@H](O)[C@H]3O)c[nH]c12	Marburg virus	–	HeLa, Musoke	100 µM, 1 h	–	viral RNA copies	799000 copies/mL
COC(=O)c1nc(C(F)(F)F)n2c1CN(C(=O)C[C@H](N)Cc1cc(F)c(F)cc1F)CC2.O=P(O)(O)O	rep main protease	reporter gene (Gaussia luciferase), inhibitor	–	20 µM	–	inhibition	0.746%
O=C(/C=C\c1cnccn1)NC[C@@H](NC(=O)c1cn[nH]c(=O)c1)c1ccc2ccccc2c1	rep main protease	enzyme activity, inhibitor	–	5 µM, run 1	–	inhibition	14.9%
CC(C)(C)[C@H](NC(=O)C(F)(F)F)C(=O)N1C[C@H]2[C@@H]([C@H]1C(=O)N[C@H](C#N)C[C@@H]1CCNC1=O)C2(C)C	–	–	human, fasted	oral, 500 mg single dose, 28 days, no ritonavir	–	participants with serious adverse events	0%
CNC(=O)[C@@H](NC(=O)[C@H](CC(C)C)[C@H](O)C(=O)NO)C(C)(C)C	human fibrinogen	SDS-PAGE	Daboia russelii	concentration not given, unit not given, added: MP venom	relative to: untreated fibrinogen	remaining fibrinogen γ chain	0.349
NC(=O)C1=C(O)C[C@@H]2C[C@@H]3Cc4cccc(O)c4C(=O)C3=C(O)[C@]2(O)C1=O	rep main protease	reporter gene (mKate2), inhibitor	–	20 µM	–	inhibition	-0.271%
Cc1cncc(CC(=O)N2CCC[C@@H]([C@@H]3CCN(C(=O)c4cnn5cccnc45)C3)C2)c1	rep main protease	enzyme activity, inhibitor	–	5 µM, mean of runs	–	inhibition	10.2%
Nc1ncnc2c1ncn2[C@H]1C[C@H](O)[C@@H](COP(=O)(O)OP(=O)(O)OP(=O)(O)O)O1	Gag-Pol polyprotein, reverse transcriptase (gag-pol, Human immunodeficiency virus type 1 group M subtype B, UniProt P04585, K653A)	substrate	–	K66A mutant, added: G:A mismatched primer template	–	kcat	0.87 ± 0.18 min⁻¹
Nc1cc(OCc2ccc(S(=O)(=O)F)cc2)ccn1	cya (Bacillus anthracis, UniProt P40136)	–	–	–	–	kinact	0.0033 s⁻¹
O=C(O)C1(c2ccc(-c3ccc(Cl)c(Cl)c3)c(F)c2)CC1	rep main protease	reporter gene (Gaussia luciferase), inhibitor	–	20 µM	–	inhibition	-0.137%
C[C@]1(C(=O)N[C@@H]2CC[C@H]3C[C@@H]2CN3C(=O)Cc2cncc(O)c2)CCc2ccccc2C1	rep main protease	enzyme activity, inhibitor	–	5 µM, mean of runs	–	inhibition	13%
O=c1c(O)c(-c2ccc(O)cc2)oc2cc(O)cc(O)c12	Spike glycoprotein	binding, BLI	–	–	–	kon	1590 M⁻¹ s⁻¹
CC(C)(C)NC(=O)[C@@H]1C[C@@H]2CCCC[C@@H]2CN1C[C@@H](O)[C@H](Cc1ccccc1)NC(=O)[C@H](CC(N)=O)NC(=O)c1ccc2ccccc2n1	rep main protease	reporter gene (mKate2), inhibitor	–	20 µM	–	inhibition	0.536%
O=C(NCCC[C@@H](NC(=O)c1cccc2cc(=O)[nH]cc12)c1ccccc1)c1cn[nH]c(=O)c1	rep main protease	enzyme activity, inhibitor	–	5 µM, run 1	–	inhibition	12.4%
CC[C@H](C)[C@H](NC(=O)[C@H](CC(C)C)NC(=O)[C@H](Cc1c[nH]c2ccccc12)NC(=O)[C@H](CCC(N)=O)NC(=O)[C@@H](NC(=O)[C@H](Cc1ccccc1)NC(=O)[C@H](C)NC(=O)[C@H](CCCCNC(=O)COCCOCCNC(=O)COCCOCCNC(=O)CC[C@H](NC(=O)CCCCCCCCCCCCCCCCCCC(=O)O)C(=O)O)NC(=O)[C@H](CCC(N)=O)NC(=O)[C@H](C)NC(=O)[C@@H](NC(=O)[C@H](CCCCN)NC(=O)[C@H](CC(=O)O)NC(=O)[C@H](CC(C)C)NC(=O)C(C)(C)NC(=O)[C@@H](NC(=O)[C@H](CO)NC(=O)[C@H](Cc1ccc(O)cc1)NC(=O)[C@H](CC(=O)O)NC(=O)[C@H](CO)NC(=O)[C@@H](NC(=O)[C@H](Cc1ccccc1)NC(=O)[C@@H](NC(=O)CNC(=O)[C@H](CCC(=O)O)NC(=O)C(C)(C)NC(=O)[C@@H](N)Cc1ccc(O)cc1)[C@@H](C)O)[C@@H](C)O)[C@@H](C)CC)[C@@H](C)CC)C(C)C)C(=O)N[C@@H](C)C(=O)NCC(=O)NCC(=O)N1CCC[C@H]1C(=O)N[C@@H](CO)C(=O)N[C@@H](CO)C(=O)NCC(=O)N[C@@H](C)C(=O)N1CCC[C@H]1C(=O)N1CCC[C@H]1C(=O)N1CCC[C@H]1C(=O)N[C@@H](CO)C(N)=O	–	–	healthy subjects, single ascending dose	0.5 mg, titre ≥1:20	–	treatment-induced ADA positive subjects	0%

Excerpt of the above:
SMILES	tested on	test	system	setting	scale	endpoint	result
Cn1cnc(Cn2c(=O)[nH]/c(=N\c3cc4cn(C)nc4cc3Cl)n(Cc3cc(F)c(F)cc3F)c2=O)n1	–	–	human, normal renal function, plasma	oral, 375 mg single dose, 24 h	–	unbound fraction	0.0118
Nc1ncnc2c([C@@H]3N[C@H](CO)[C@@H](O)[C@H]3O)c[nH]c12	Marburg virus	–	HeLa, Musoke	100 µM, 1 h	–	viral RNA copies	799000 copies/mL
